Experimental data pooled from the literature.
Each numbered part is a random draw from the data of one study; scales do not carry over between parts. Changes are numbered by the printed parent chain.

Sample 1
Target: CRIPT, C-terminal peptide
Method: DHFR complementation, deep sequencing
Matrix: yeast
Notes: single substitutions, model-inferred values
Baseline: wild type
Direction: higher = weaker binding
Starting sequence: ERBIN, PDZ domain 1 (human); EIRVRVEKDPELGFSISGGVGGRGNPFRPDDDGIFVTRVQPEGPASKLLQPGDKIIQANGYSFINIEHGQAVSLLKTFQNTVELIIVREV; partner TKNYKQTSV
Substitution	binding free energy change [kcal/mol]
T77S	-0.0971
E7I	0.0699
E89D	0.00299
Q57K	-0.058
E11M	-0.929
V72A	-0.15
H68L	1.14
P44W	1.1
N80L	0.146
I55C	0.542
E7V	-0.0428
G13R	0.483
N65T	0.0435
N65A	0.026
R38C	0.0902
Q70F	0.118
I55M	0.176
S17H	1.31
I85G	-0.0146
N65Y	0.102
L49D	0.746
V72I	1.4
R3H	0.0219
T77M	0.037

Sample 2
Target: CCND2, cyclin fold, Cln2 fusion (human)
Method: yeast growth competition, sequencing
Matrix: yeast
Notes: strong parent motif
Baseline: not given
Direction: higher = stronger binding
Starting sequence: INSM1 docking peptide (human); PKAIRKLHFEDEV; partner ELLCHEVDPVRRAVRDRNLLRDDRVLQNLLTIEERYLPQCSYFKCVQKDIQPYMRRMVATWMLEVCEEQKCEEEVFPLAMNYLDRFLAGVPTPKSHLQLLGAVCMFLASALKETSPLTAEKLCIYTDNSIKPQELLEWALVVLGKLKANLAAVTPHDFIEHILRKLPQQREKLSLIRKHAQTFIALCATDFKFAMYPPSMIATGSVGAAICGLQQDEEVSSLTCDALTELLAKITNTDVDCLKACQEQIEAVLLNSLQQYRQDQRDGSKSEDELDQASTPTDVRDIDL
Substitution	normalised enrichment score
PDAIRKLHFEDEV [K2D]	0.77
PKAIRCLHFEDEV [K6C]	1.96
PKAIRKLHFLDEV [E10L]	1.08
PKAIRKLHFFDEV [E10F]	1.37
PKAIRKLHFECEV [D11C]	1.78
PKAIGKLHFEDEV [R5G]	0.0585
PKAIRKLHFEDIV [E12I]	1.54
PKAIDKLHFEDEV [R5D]	0.448
PMAIRKLHFEDEV [K2M]	1.97
PKAIRKLTFEDEV [H8T]	4.08
PKAIRKLHSEDEV [F9S]	0.0832
PKAIRKLHFEDHV [E12H]	2.17
PKAGRKLHFEDEV [I4G]	0.33
PKAIRKLAFEDEV [H8A]	2.25
PKAIRKLHFEDVV [E12V]	1.73
PKYIRKLHFEDEV [A3Y]	0.174
PKAIIKLHFEDEV [R5I]	0.495
PKAARKLHFEDEV [I4A]	3.06
PLAIRKLHFEDEV [K2L]	1.31
PKAITKLHFEDEV [R5T]	0.405
PKAIRKLHFEQEV [D11Q]	1.94
PKLIRKLHFEDEV [A3L]	0.116
PKAIRKLHFELEV [D11L]	1.42
PKAIRKLMFEDEV [H8M]	2.41
PKAIRKLHFEDTV [E12T]	1.77

Sample 3
Target: ABI1, truncated, D143A, DHFR fusion (Arabidopsis thaliana)
Method: DHFR PCA, deep sequencing
Matrix: yeast
Notes: methotrexate growth selection, single substitutions
Added: (+)-ABA 2500 µM
Baseline: wild-type fitted maximum
Direction: higher = stronger binding
Starting sequence: PYL1, truncated, DHFR fusion (Arabidopsis thaliana); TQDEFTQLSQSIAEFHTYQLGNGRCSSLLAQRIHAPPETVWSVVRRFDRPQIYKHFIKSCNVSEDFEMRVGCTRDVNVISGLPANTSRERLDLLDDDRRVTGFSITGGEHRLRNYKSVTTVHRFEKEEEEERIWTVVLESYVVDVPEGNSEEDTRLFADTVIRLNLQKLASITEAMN; partner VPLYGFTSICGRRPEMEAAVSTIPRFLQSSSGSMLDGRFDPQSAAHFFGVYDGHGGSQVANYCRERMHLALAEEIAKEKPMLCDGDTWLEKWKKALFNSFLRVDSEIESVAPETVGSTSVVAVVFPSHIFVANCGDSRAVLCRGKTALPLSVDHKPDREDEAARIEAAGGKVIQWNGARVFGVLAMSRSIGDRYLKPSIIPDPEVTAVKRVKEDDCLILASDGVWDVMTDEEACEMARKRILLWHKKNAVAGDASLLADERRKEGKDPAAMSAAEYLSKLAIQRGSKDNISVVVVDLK
Substitution	relative binding score
P50T	20.5%
F15S	90.8%
M68Y	95.6%
E109A	95.5%
K58D	92%
T135F	-3.27%
S11F	83.4%
Q31Y	75.2%
R69N	102%
L82G	76.9%
V145I	93.1%
T17S	104%
E38T	89.6%
S117M	55.2%
D92M	87.6%

Sample 4
Target: Histone acetyltransferase KAT6A, both winged helices, GST fusion (KAT6A, Homo sapiens, UniProt Q92794, residues 1-181)
Method: protein binding microarray
Form: double-stranded DNA, one strand shown
Matrix: in vitro
Concentration: not given
Notes: 8-mer, flanks averaged, mean of 2 arrays, mostly near background
Baseline: not given
Direction: higher = stronger binding
Construct (chain): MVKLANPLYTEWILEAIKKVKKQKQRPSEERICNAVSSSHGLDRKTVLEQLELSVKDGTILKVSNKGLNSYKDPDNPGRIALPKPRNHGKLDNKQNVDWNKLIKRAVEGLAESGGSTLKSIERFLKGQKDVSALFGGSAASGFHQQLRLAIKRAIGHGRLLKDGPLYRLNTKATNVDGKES
Strand	E-score
GACCTGAC	-0.163
AACCAACT	-0.118
AGGGACGG	0.138
ATGGTATC	-0.186
ACCGTCAT	0.161
TATAACAA	-0.0855
AAAAAAAT	-0.0216
CCGACGCC	0.3
AACGGAGT	0.213
ATTCAGAG	-0.113
GGGAAACC	0.0889
CTATTTGC	-0.153
CCGTCCTC	0.0863
TAGTGTCA	0.0436
AATTTGCT	-0.118
AGGTTAGG	-0.296
CCACTGGC	-0.125

Sample 5
Target: Phosphate system positive regulatory protein PHO4, full length, GST-tagged (PHO4, Saccharomyces cerevisiae, UniProt P07270, residues 1-312)
Method: competition protein-binding microarray
Form: double-stranded DNA, one strand shown
Matrix: in vitro
Concentration: 2 µM
Notes: whole 60-bp probe, lowest competitor level
Added: Cbf1 competitor, 0.05 µM
Direction: higher = stronger binding
Constant ends, left off below: … GTCTTGATTCGCTTGACGCTGCTG
Target sequence (chain): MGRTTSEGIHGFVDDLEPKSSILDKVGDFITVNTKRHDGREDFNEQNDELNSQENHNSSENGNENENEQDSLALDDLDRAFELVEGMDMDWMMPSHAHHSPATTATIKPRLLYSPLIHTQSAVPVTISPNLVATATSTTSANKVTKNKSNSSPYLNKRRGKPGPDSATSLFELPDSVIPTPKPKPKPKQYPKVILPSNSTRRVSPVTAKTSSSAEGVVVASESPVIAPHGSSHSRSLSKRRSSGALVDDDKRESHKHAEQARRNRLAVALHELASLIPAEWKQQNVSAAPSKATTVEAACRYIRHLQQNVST
Strand	fluorescence intensity [a.u.]
CTAACGAAGGTTTGGAACGTGGGTGACAAGCCAAGT	11700
AAATTACTAAGTTGCGGGGTGGGTGACGCCGTATGA	3800
CTTTCCCGATCTTGATTGGTGGGTGTAGCACATTTG	4140
ATAACAAGAGACTGTCATGAAATTAATGTCTTACAA	3000
ACCCTTCAAATGGCACACCTGCAGGCAGAGGCATGG	7240
TCCAGAACTTTTAAGCGCGTGTTCCAGGCGTTGCCG	9390
CTTCTGTAAATTTGTCACGGAACTTGACGCGCCCCG	3570
AAATTACTAAGTTGGCAAGTGGGTGACGCCGTATGA	4090
CGTCCTAGTGATTGCCACGTGTTTTCCATGAGGAAG	18900
ATGCCAATAGAGCCGCACATGTAATTACTGGTTGAC	10100
GTCTTGTCTCATTGTCACGTGGGTGTCCCCACTTCA	16300
AAAGCGGTAATTTGTCACGTAACTTCACATATCTAT	4460
GCGGAAGACGCGCGAAACGTGAAACATTTTGCATGG	8950
CATACCCAACCTTGGTACGTGGGTGAAGATATTTGT	9740
CCAAGTGGATATTTTCACGTTTGCGCGCTGCGTCTT	5380
GGATCTTCTCTTCTTCACCGGCGAGATGGGCTGCGG	2580
ATATTAGCTGAAAACCACATGGACGCAGCATTCAGT	9070
TGCCATCATCAATTGCACGTTTTCAAGTATTTATAA	13500
GGGTCCACTCTTATACGCGTGGGTATTTTTTCCTTT	10700
AGGAAAAGTTACCTGCGCATGCCGATGTCTACACTT	8360
TAATGTCAATATTCACACGTCGTTATAAGCAGCTAA	4960
AAGTGCCGGAGGCTCAGCGTGACGGTGCAGATAGGT	6460
CCAAGCAGCAGTTTACGCGTGTCCAAAAAATGCTGT	8740
CTTCTGTAAATTTGTCACCGCACTTGACGCGCCCCG	3310
CTTCTGTAAATTTGCATAGTGGGTGGACGCGCCCCG	4160

Sample 6
Target: RING finger protein unkempt homolog, zinc fingers 1-6, GST-SBP tag (UNK, Homo sapiens, UniProt Q9C0B0, residues 30-357)
Sequence of UniProt Q9C0B0 (30-357, looked up): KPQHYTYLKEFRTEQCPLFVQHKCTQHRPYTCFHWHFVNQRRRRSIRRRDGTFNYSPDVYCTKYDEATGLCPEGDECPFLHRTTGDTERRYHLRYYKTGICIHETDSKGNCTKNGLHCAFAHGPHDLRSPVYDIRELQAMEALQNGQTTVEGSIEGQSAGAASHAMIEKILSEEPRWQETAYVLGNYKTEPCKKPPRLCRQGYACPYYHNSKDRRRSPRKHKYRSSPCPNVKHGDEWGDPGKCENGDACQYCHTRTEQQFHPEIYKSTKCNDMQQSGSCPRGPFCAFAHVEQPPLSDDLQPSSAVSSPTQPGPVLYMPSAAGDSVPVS
Method: RNA Bind-n-Seq
Form: RNA
Matrix: in vitro
Concentration: not given
Notes: RNA with constant flanks, human and mouse sites, ends assumed
Baseline: input RNA pool
Direction: higher = stronger binding
Constant ends, left off below: GGGAGUUCUACAGUCCGACGAUC … CAACAGAGGAUUGAGCAUCA
Strand	bound/input enrichment
GUCUCCAUUUUGUCAGCAAUGGAGCUCAUCUGGAACCUGUGUGAGAUUCUUUUUAUUGAAGUGGCCCCAGCUGGCCCUCUCCUCCUCCAUCUCCUUGACUGGGUCCGGCUCCAUGUGUGC	0.271 ratio
AAAGGGUAUACCAAUUCUGAAACUAAAGUACAAACAGCAAAGCAUUCUCAUUUUCGGUCACAUUCCAGAUCUCGAAGUUAUCGUCAUAAAAACAGUUGGUGAACAGCAACAGAAAGAGCA	0.271 ratio
AUUAAAAUAAGGAUCCAUGAUGACCUUAAAAGAACUGUAGAUCUUUGUCAAAAGGCUGAAGCAACAGGAGUUUCAUGGAUUACAGUCCAUGGAAGAACUGCUGAAGAAAGACAUCAGCCA	0.142 ratio
CCCCAGCCGGGCACUACCGCCAUGACGAACGUGUACUCCUUGGAUGGGAUCCUGGUGUUUGGUUUGCUCUUUGUUUGCACCUGUGCCUACUUCAAGAAAGUACCUCGUCUCAAAACCUGG	0.122 ratio
UGUCCAGGUUGCUACAAGAUCACCACGGUUUUCAGCCAUGCUCAGACAGUGGUUCUUUGUGUAGGUUGUUCAACAGUGUUGUGCCAGCCUACAGGAGGAAAGGCCAGACUCACAGAAGGG	0.11 ratio
GUGCCCCGGCACCUCCGCGGGCGGCGGGCGACUGGCUCUGCCGCAACUGCCGCCUCCUCUCCCGCCGCGGCGGCCGGCGAUAGCCCGGCGCUCAUGACAGAUCCCUGCAUGUCACUGAGU	0.649 ratio
UAAAGUUUUUAUACAGCCUCAAAUUGUUUUAUUAAAAAAAAGAUUUAAAAUGGUGAUGCUUACAGCAGUUUGUACGAGCUCUUAAGUGUUGAUUCCAUGGAACUGACGGCUUUGCUUGUU	0.353 ratio
UACCUGCUGCUGCAGACCUACGUACUCCGCCUGGAAGCCAUCAUGAAUGGCAUCUUGCUCUUCUUCUGUGGCUCAGAGCUUUUACUUGAGGUGCUCACCUUGGCUGCUUUCUCCAGUAUG	0.247 ratio
AAUGCUGUGUAGACUCGGCUCUUGUAAAAGCAGUAGGAGCCUGAGAGUGCUCGUGUUUCCCCGAGUCCUCUGGCUGCCAAAGUCUCUGCUGCAAGGUCGAGGUUUGUUUUCUCAAAGUUU	0.119 ratio
CCUCAAGACAUCGAGUGCUGCGGAGCCCUGGAGUACUACGACAAAGCCUUUGACCGCAUCACCACAAGGAGUGAGAAGCCCCUGCGGAGCAUCAAGCGCAUCUUUCACACCGUCACCACC	0.109 ratio
AAGAGUCAAGGUGGGGAGCCAACAUACAAUGUGGCUGUCGGCAGAGCUGGUAGAGUCUUGGUCUUUGUAAUGGGAAAAGAAGGGGUCCAUGGAGGCGGAUUGAAUAAGAAGGCAUACUCA	0.417 ratio

Single results of other studies
Molecule	target	assay	test system	setting	scale	measurement	value
PhoQ, residues 284 288 289 292 302 303 SLKLQV	PhoP, residues 12 14 15 18 19 LWHCS (Escherichia coli, UniProt P23836)	Sort-seq, measured: YFP reporter	E. coli	PhoQ-PhoP variant library, added: 10 µM Mg2+	baseline: high Mg2+ state, higher = stronger signaling	fold induction	10.4

For quick reference, copied from above (sample 1):
Substitution	binding free energy change [kcal/mol]
N65T	0.0435
N65A	0.026
R38C	0.0902
Q70F	0.118
I55M	0.176
S17H	1.31
I85G	-0.0146
N65Y	0.102
L49D	0.746
V72I	1.4
